Measurements collected from several papers.
Values joined by “and” are separate records of one study, mostly repeats; a detail may differ. Numbers after ± are the reported error.
UniProt Q61205, sequence (whole entry, looked up): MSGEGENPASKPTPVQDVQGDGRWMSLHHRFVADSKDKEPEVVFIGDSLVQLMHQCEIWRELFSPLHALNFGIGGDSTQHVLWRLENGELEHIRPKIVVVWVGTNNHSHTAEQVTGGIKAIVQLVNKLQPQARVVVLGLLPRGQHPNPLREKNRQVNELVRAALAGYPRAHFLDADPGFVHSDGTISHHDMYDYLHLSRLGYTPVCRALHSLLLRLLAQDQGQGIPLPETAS

`CCOc1ccccc1-n1c(CN2CCNCC2)nc2ccccc2c1=O` gave an IC50 of 0.0607 µM (PANC-08-13; cell growth or viability; 72 h).
The IC50 of `O=c1n(CCNCCOS(=O)(=O)c2ccccc2)c(=O)n(S(=O)(=O)c2ccccc2)c(=O)n1S(=O)(=O)c1ccccc1` is reported as 12.7 µg/mL (A549; cell growth or viability, MTT; 72 h).
`CC(C)C12OC1C1OC13C1(C)CCC4=C(COC4=O)C1CC1OC13C2OC(=O)CCCOC1OC(CO)C(O)C(O)C1O` (stereo not shown) gave an IC50 of 0.61 µM (PC-3; cell growth or viability, XTT; 47 h).
`COc1ccccc1-c1n[nH]c2nc(NC3CCN(C(=O)Cc4ccc(F)cc4F)CC3)ncc12` has a relative abundance of 0.72 (bead binding, competition bead pull-down, measured: LINJ.33.0950; Leishmania donovani axenic amastigote extract; 10 µM; relative to: vehicle).
For `CC(=O)N[C@H](C(=O)N[C@@H](CCCNC(=N)N)C(=O)N[C@@H](CCCCN)C(=O)N[C@@H](CCCNC(=N)N)C(=O)N[C@@]1(C)CCCC=CCCC[C@@](C)(C(=O)N[C@@H](CC(C)C)C(=O)N[C@@H](CCC(N)=O)C(=O)N[C@@H](CCC(=O)O)C(=O)N[C@@H](CCCNC(=N)N)C(=O)N[C@@H](CCC(=O)O)C(=O)N[C@@H](CC(C)C)C(=O)N[C@H](C(=O)N[C@@H](CCC(=O)O)C(N)=O)C(C)C)NC(=O)[C@H](CCCNC(=N)N)NC(=O)[C@H](CCCNC(=N)N)NC(=O)[C@H](CC(C)C)NC1=O)C(C)C`, the IC50 was over 100 µM (A-431 (wild-type EGFR); cell viability; 18 h).
`CS(C)(=O)=Nc1ccc(-c2ccc(-c3nc4cc(O[C@@H]5CO[C@H]6[C@@H]5OC[C@H]6O)[nH]c4cc3F)cc2)cc1` has an inhibition of -6% (MET (Homo sapiens, UniProt P08581); enzyme activity, inhibitor; 10 µM).
`CN(C)[C@H]1C[C@@]23CC[C@@]4(O2)C(=CC[C@]2(C)[C@@H](c5ccc6ccncc6c5)CC[C@H]24)C=C3[C@@H](O)[C@@H]1O` has an inhibition of -2.9% (MAP2K2 (Homo sapiens, UniProt P36507); ATP probe labelling, inhibitor, KiNativ profiling; 0.1 µM).
Under “organ-to-brain weight ratio”, `O=C1NC2(CC2)COc2ncc(F)cc2[C@H]2COCCN2c2ccn3ncc1c3n2` is recorded as 58.9 ± 19.3% (Sprague-Dawley rat, female, spleen; oral, 20 mg/kg/day, 4 weeks, end of treatment).
`Cc1ccc(C(C)C)cc1.F[P-](F)(F)(F)(F)F.[Cl][Os+]1[N]2C=CC=c3ccc4c(c32)[N]1C=CC=4` has an IC50 of over 100 µM (M109; cell growth or viability, MTT).
`CC(C)(C)C(=O)OCOP(=O)(OCOC(=O)C(C)(C)C)C1CCCN(O)C1=O` (stereo not shown) has a CC50 of over 100 µM (SNB-19).
Under “maximum pancreas uptake”, `CC[C@H](C)[C@H](NC(=O)[C@H](CO)NC(=O)[C@H](Cc1ccc(O)cc1)NC(=O)[C@H](Cc1ccc(O)cc1)NC(=O)[C@H](CC(N)=O)NC(=O)CNC(=O)[C@H](CO)NC(=O)[C@H](Cc1ccc(O)cc1)NC(=O)[C@H](CO)NC(=O)[C@H](CO)NC(=O)[C@H](CC(N)=O)NC(=O)COCCOCCNC(=O)CN1CCN(CC(=O)O)CCN(CC(=O)O)CCN(CC(=O)O)CC1)C(=O)N[C@@H](CC(C)C)C(N)=O` [copper-64 labelled] is recorded as 18.3 %IA/cc (dynamic PET; tamoxifen-induced PDAC mouse model, pancreas; 9.5 min, CLDN4-expressing tumours).
`CC(C)CC(C(=O)N1CC2(CC1C#N)C(=O)Nc1ccccc12)N(C)C(=O)c1cc2c(F)cc(F)c(F)c2[nH]1` (stereo not shown) gave an inhibition of 108% (Human coronavirus 229E; cytopathic effect; MRC5; 40 nM).
With `Cc1ccc(C(C)C)cc1.Cc1ccc(C(C)C)cc1.Cc1ccc(C(C)C)cc1.Cc1ccc(C(C)C)cc1.O=S(=O)(O)C(F)(F)F.O=S(=O)(O)C(F)(F)F.O=S(=O)(O)C(F)(F)F.O=S(=O)(O)C(F)(F)F.c1ccc2c3c4ccccc4c(c2c1)-c1cn(nn1)-c1cc[n+](cc1)[Ru-]1[O]c2ccc4c5c(ccc(c25)=[O+]1)=[O+][Ru-]([O]4)[n+]1ccc(cc1)-n1cc(nn1)-c1c2ccccc2c(c2ccccc12)-c1cn(nn1)-c1cc[n+](cc1)[Ru-]1[O]c2ccc4c5c(ccc(c25)=[O+]1)=[O+][Ru-]([O]4)[n+]1ccc(cc1)-n1cc-3nn1` the IC50 was 35.7 µM (HEK293; cell growth or viability, MTT; 24 h).
The IC50 of `CC[C@H](C)[C@H](NC(=O)[C@H](C)NC(=O)[C@@H](N)Cc1c[nH]cn1)C(=O)N[C@@H](Cc1ccc(O)cc1)C(=O)N1CCC[C@H]1C(=O)N[C@@H](CCCNC(=N)N)C(=O)N[C@@H](Cc1c[nH]cn1)C(=O)N[C@@H](CC(C)C)C(=O)N[C@@H](CCC(=O)O)C(=O)N[C@H](C(=O)N[C@@H](C)C(=O)N[C@H](C(=O)N[C@@H](CC(N)=O)C(=O)N[C@@H](CC(C)C)C(=O)N[C@@H](C)C(=O)N[C@@H](Cc1c[nH]c2ccccc12)C(=O)O)C(C)C)[C@@H](C)O` is reported as over 14.3 µM (MEC1; cell growth or viability, flow cytometry; 90 min).
The IC50 of `O=C1C=CC(=O)c2c(O)ccc(O)c21` is reported as 0.147 µM (MOLT-3; cell growth or viability, XTT).
For `CCCCCCCC(=O)NCCCC[C@H](NC(=O)CCCCCCC)C(=O)N[C@@H](CCCCNC(=O)CCCCCCC)C(=O)NCC(=O)NCC(=O)NCC(=O)N[C@@H](CS)C(=O)N[C@@H](CCCNC(=N)N)C(=O)N[C@@H](CCCCN)C(=O)N1CCC[C@H]1C(=O)N[C@@H](CS)C(=O)N[C@@H](CCCNC(=N)N)C(=O)N[C@@H](CCCCN)C(=O)N1CCC[C@H]1C(=O)N[C@@H](CS)C(=O)N[C@@H](CCCNC(=N)N)C(=O)N[C@@H](CCCCN)C(=O)N1CCC[C@H]1C(N)=O`, the IC50 was 168 µM (HEK293; cell growth or viability, MTT; 24 h).
For `Oc1cccc2cccnc12.Oc1cccc2cccnc12.[Cl][Fe]([Cl])[Cl]`, the IC50 was 3.3 ± 0.3 µM (A2780; viability, MTT; 48 h).
The activity ratio-of-ratios of `CC(C)CC(O)(CC(C)C)c1cn(C(=O)N2CCCC2)nn1` is reported as 1.1 (Platelet-activating factor acetylhydrolase IB subunit alpha1 (Pafah1b3, Mus musculus, UniProt Q61205); probe labelling, inhibitor, measured: Pafah1b3; mouse, brain; i.p., 0.8 mg/kg, 4 h, protein level; relative to: treated over vehicle mice, lower = stronger inhibition).
`CC[C@H](C)[C@H](NC(=O)[C@H](Cc1c[nH]cn1)NC(=O)[C@H](CCCNC(=N)N)NC(=O)[C@H](CCCNC(=N)N)NC(=O)[C@H](CCCNC(=N)N)NC(=O)CNC(=O)[C@H](CCCNC(=N)N)NC(=O)[C@H](CCCNC(=N)N)NC(=O)[C@H](CCCNC(=N)N)NC(=O)[C@H](CCC(N)=O)NC(=O)[C@H](CCCNC(=N)N)NC(=O)[C@H](CCCNC(=N)N)NC(=O)[C@H](CCCCN)NC(=O)[C@H](CCCCN)NC(=O)[C@H](CCCNC(=N)N)NC(C)=O)C(=O)N[C@H](C(=O)N[C@@H](CCCNC(=N)N)C(=O)N[C@@H](CCCCN)C(=O)N[C@@H](CCCNC(=N)N)C(=O)N[C@H](C(=O)N[C@@H](CC(C)C)C(=O)N[C@@H](CCCNC(=N)N)C(=O)N[C@@H](CCCNC(=N)N)C(=O)N[C@@H](CC(C)C)C(=O)N[C@@H](CC(C)C)C(=O)N[C@@H](CCC(N)=O)C(=O)N[C@@H](CCC(=O)O)C(=O)N[C@@H](CCCNC(=N)N)C(N)=O)[C@@H](C)O)C(C)C` has an IC50 of 28.6 µM (A-431; cell viability; 18 h, serum-free).
For `O=C(C[Se]C(=O)c1cccs1)Nc1cccc(C(F)(F)F)c1`, the IC50 was 10.5 µM (LNCaP; cell growth or viability, MTS; 48 h).
For `COC(=O)[C@H](C(C)C)N(C)C(=O)[C@H](C(C)C)N(C)C(=O)[C@@H]1CCCN1C(=O)[C@H](C)N(C)C(=O)OC(C)(C)C`, the IC50 was 413 µM and 368 µM and 325 µM (HEK293; cell growth or viability, SRB).
The relative abundance of `COc1ccccc1-c1n[nH]c2nc(N[C@H]3CC[C@H](NS(=O)(=O)CC(C)C)CC3)ncc12` is reported as 0.9 (bead binding, competition bead pull-down, measured: LINJ.24.2330; Leishmania donovani extract; 10 µM; relative to: vehicle).
`CCC1=C(C)C2=C(c3ccc(C(=O)NCCNC(=O)c4ccc(P(=NC5=[O+][Ru-]([Cl])[n+]6ccccc65)(c5ccccc5)c5ccccc5)cc4)cc3)c3c(C)c(CC)c(C)n3[B-](F)(F)[N+]2=C1C.Cc1ccc(C(C)C)cc1.Cl` has an IC50 of 180 µM (IMR-90; cell growth or viability, MTT).
The IC50 of `CC(C)C12OC1C1OC13C1(C)CCC4=C(COC4=O)C1CC1OC13C2OC(=O)CCC(=O)OC1OC(CO)C(O)C(O)C1O` (stereo not shown) is reported as 2.67 µM (RPMI-7951; cell growth or viability, XTT; 47 h).
`CCCCCCCC(=O)NCCCC[C@H](NC(=O)CCCCCCC)C(=O)N[C@@H](CCCCNC(=O)CCCCCCC)C(=O)NCC(=O)NCC(=O)NCC(=O)N[C@@H](CS)C(=O)N[C@@H](CCCNC(=N)N)C(=O)N[C@@H](CCCCN)C(=O)N1CCC[C@H]1C(=O)N[C@@H](CS)C(=O)N[C@@H](CCCNC(=N)N)C(=O)N[C@@H](CCCCN)C(=O)N1CCC[C@H]1C(=O)N[C@@H](CS)C(=O)N[C@@H](CCCNC(=N)N)C(=O)N[C@@H](CCCCN)C(=O)N1CCC[C@H]1C(=O)N[C@@H](CS)C(=O)N[C@@H](CCCNC(=N)N)C(=O)N[C@@H](CCCCN)C(=O)N1CCC[C@H]1C(N)=O` gave an IC50 of 122 µM (HCE-T; cytotoxicity, MTT; 24 h).
`Cc1cc(Nc2nc(C[C@@]3(C(=O)O)CCN(Cc4cccc(Cl)c4F)[C@H](C)C3)cc(C)c2F)[nH]n1` has an IC50 of 0.0081 µM (SH-SY5Y; cell growth or viability, ATP luminescence; 5 days).
`CC(C)C[C@H](NC(=O)[C@H](CC(N)=O)NC(=O)[C@@H](NC(=O)[C@H](C)NC(=O)[C@@H](NC(=O)[C@H](CCC(=O)O)NC(=O)[C@H](CC(C)C)NC(=O)[C@H](CCCCN)NC(=O)[C@H](CCCCN)NC(=O)[C@H](CCC(=O)O)NC(=O)[C@H](Cc1c[nH]c2ccccc12)NC(=O)[C@@H](NC(=O)[C@H](Cc1c[nH]c2ccccc12)NC(=O)[C@H](CO)NC(=O)CNC(=O)CNC(=O)[C@H](CCCNC(=N)N)NC(=O)[C@H](CCCNC(=N)N)NC(=O)[C@H](CCCNC(=N)N)NC(=O)[C@H](CCC(N)=O)NC(=O)[C@H](CCCNC(=N)N)NC(=O)[C@H](CCCNC(=N)N)NC(=O)[C@H](CCCCN)NC(=O)[C@H](CCCCN)NC(=O)[C@@H](N)CCCNC(=N)N)[C@@H](C)O)[C@@H](C)O)C(C)C)C(=O)N[C@@H](C)C(=O)N[C@@H](Cc1c[nH]c2ccccc12)C(=O)N[C@H](C(=O)N[C@@H](C)C(=O)NCC(=O)N[C@@H](CC(N)=O)C(=O)N[C@@H](CO)C(=O)N[C@@H](CC(N)=O)C(=O)N[C@@H](CCCCN)C(=O)N[C@@H](Cc1c[nH]c2ccccc12)C(=O)N[C@H](C(=O)N[C@@H](Cc1c[nH]c2ccccc12)C(=O)N[C@@H](CCCCN)C(=O)O)[C@@H](C)O)[C@@H](C)O` has an IC50 of over 10 µM (MEC1; cell growth or viability, flow cytometry; 90 min).
For `Cc1cc(Oc2nc(N3CC[C@@H](c4ccncc4)C3)ncc2F)[nH]n1`, the IC50 was 87.1 µM (HEK293; cell proliferation; kidney cancer).

A few entries again:
For `O=C(C[Se]C(=O)c1cccs1)Nc1cccc(C(F)(F)F)c1`, the IC50 was 10.5 µM (LNCaP; cell growth or viability, MTS; 48 h).
For `Oc1cccc2cccnc12.Oc1cccc2cccnc12.[Cl][Fe]([Cl])[Cl]`, the IC50 was 3.3 ± 0.3 µM (A2780; viability, MTT; 48 h).
